# Measured values collected from several papers.
# The chains behind the UniProt entries cited, without tags or fusion partners. Where a name states a change or a piece, a line headed by the entry shows the natural chain unless it says otherwise. Residues count along the entry.
# UniProt Q02294, whole entry, looked up: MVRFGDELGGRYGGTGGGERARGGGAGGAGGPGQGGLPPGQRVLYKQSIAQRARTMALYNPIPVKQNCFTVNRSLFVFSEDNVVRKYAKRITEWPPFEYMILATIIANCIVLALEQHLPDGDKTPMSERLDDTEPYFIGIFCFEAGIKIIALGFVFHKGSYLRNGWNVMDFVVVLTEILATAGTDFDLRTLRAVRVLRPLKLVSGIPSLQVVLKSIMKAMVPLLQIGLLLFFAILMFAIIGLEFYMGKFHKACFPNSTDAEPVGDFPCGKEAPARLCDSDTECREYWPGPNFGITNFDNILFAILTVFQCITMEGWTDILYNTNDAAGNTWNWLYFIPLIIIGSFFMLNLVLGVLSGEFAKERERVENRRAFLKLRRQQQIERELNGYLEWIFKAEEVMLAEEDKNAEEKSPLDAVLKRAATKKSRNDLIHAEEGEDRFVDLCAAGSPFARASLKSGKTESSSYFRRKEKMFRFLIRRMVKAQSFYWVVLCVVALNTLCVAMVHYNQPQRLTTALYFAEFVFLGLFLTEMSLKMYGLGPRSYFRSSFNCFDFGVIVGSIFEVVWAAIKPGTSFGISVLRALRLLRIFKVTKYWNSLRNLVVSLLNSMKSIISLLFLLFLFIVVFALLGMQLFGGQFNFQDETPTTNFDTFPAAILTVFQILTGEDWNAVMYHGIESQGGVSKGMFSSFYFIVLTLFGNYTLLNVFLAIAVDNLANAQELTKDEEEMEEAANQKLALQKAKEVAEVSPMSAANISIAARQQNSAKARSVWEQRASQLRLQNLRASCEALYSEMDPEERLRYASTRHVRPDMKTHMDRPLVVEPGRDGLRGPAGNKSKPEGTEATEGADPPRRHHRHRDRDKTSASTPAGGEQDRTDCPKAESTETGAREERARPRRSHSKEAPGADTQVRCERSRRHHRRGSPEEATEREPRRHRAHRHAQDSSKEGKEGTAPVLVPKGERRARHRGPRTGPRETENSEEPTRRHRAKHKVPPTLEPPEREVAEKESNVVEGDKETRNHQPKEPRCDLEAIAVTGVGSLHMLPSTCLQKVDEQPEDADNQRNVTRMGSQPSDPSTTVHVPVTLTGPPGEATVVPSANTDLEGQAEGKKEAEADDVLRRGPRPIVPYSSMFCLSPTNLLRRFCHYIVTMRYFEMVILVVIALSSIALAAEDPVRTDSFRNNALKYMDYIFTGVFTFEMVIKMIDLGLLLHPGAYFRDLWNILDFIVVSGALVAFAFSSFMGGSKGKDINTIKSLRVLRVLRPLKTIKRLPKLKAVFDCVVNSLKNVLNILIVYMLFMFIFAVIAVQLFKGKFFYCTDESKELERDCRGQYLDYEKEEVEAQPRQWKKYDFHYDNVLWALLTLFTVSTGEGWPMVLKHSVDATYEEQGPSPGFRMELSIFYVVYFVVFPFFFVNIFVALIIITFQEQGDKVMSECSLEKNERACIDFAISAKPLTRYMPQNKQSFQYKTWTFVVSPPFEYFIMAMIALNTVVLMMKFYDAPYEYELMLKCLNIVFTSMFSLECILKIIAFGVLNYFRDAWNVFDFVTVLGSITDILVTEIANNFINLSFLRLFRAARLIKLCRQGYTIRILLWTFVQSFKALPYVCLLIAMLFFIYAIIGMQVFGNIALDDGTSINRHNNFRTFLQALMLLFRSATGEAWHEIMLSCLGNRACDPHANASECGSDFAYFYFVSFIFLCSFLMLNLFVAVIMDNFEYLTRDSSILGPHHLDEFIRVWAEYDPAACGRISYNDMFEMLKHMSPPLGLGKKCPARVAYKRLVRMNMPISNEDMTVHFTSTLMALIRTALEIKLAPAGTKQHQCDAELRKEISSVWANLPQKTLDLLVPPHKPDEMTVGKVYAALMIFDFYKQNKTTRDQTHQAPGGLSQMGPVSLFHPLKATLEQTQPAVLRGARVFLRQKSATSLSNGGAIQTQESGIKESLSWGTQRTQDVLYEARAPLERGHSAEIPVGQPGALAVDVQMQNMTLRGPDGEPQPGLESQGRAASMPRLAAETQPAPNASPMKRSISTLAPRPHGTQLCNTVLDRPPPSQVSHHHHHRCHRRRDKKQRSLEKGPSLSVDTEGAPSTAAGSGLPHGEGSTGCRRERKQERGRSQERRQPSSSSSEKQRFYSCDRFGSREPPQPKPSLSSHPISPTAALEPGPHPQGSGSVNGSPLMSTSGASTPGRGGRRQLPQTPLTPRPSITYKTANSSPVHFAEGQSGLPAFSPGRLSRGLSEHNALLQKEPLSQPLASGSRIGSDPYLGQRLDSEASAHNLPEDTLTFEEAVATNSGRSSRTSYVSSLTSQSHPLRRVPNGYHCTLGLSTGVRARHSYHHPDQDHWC
# UniProt P04775, whole entry: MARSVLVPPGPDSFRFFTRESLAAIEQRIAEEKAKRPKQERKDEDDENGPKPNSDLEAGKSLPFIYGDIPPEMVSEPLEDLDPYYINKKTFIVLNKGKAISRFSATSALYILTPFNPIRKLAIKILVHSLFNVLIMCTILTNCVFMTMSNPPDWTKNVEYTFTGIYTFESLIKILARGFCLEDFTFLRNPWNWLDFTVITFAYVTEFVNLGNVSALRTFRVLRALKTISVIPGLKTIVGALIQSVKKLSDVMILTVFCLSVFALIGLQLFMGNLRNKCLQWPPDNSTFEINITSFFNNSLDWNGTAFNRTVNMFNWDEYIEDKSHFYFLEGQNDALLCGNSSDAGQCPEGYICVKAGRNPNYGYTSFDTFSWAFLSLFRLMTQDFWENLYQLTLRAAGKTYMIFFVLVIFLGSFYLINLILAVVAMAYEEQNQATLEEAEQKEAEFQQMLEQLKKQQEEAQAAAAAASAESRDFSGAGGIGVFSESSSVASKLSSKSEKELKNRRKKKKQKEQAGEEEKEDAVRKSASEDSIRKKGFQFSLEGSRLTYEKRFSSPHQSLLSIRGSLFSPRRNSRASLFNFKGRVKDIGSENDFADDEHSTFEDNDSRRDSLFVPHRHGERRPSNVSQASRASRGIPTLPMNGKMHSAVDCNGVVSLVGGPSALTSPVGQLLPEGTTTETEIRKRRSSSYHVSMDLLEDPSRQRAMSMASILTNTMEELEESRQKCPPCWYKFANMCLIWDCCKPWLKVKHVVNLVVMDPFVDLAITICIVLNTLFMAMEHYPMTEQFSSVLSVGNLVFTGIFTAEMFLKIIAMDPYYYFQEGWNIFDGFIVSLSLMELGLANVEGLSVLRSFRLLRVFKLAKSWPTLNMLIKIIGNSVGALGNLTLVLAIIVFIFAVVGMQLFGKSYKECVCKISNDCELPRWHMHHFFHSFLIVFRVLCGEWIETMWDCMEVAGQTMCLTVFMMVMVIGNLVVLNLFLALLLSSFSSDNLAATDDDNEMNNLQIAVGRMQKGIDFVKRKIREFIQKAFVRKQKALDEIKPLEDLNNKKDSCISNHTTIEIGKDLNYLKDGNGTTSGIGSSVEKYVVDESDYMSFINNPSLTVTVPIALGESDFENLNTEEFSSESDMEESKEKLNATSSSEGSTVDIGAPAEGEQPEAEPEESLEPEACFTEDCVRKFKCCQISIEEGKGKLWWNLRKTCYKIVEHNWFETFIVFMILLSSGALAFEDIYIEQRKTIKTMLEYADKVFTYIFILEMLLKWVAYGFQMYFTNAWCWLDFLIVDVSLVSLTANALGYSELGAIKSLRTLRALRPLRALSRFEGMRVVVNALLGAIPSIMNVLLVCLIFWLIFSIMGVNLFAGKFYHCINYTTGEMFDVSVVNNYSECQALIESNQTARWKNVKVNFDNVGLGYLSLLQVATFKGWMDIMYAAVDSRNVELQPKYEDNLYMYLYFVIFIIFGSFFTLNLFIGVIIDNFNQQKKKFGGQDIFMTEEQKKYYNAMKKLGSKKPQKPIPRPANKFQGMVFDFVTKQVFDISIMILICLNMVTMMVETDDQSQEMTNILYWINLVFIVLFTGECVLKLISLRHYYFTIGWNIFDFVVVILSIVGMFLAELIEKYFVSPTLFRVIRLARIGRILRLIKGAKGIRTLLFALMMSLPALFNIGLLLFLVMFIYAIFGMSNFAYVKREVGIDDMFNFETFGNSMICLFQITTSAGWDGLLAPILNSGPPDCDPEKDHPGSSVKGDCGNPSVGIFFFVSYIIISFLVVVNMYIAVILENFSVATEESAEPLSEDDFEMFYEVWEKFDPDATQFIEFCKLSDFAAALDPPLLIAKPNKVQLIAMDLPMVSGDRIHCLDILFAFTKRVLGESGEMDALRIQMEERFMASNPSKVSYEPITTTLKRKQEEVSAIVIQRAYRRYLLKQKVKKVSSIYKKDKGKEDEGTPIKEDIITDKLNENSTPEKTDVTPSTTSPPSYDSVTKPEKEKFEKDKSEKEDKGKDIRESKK
# UniProt Q8I719, whole entry: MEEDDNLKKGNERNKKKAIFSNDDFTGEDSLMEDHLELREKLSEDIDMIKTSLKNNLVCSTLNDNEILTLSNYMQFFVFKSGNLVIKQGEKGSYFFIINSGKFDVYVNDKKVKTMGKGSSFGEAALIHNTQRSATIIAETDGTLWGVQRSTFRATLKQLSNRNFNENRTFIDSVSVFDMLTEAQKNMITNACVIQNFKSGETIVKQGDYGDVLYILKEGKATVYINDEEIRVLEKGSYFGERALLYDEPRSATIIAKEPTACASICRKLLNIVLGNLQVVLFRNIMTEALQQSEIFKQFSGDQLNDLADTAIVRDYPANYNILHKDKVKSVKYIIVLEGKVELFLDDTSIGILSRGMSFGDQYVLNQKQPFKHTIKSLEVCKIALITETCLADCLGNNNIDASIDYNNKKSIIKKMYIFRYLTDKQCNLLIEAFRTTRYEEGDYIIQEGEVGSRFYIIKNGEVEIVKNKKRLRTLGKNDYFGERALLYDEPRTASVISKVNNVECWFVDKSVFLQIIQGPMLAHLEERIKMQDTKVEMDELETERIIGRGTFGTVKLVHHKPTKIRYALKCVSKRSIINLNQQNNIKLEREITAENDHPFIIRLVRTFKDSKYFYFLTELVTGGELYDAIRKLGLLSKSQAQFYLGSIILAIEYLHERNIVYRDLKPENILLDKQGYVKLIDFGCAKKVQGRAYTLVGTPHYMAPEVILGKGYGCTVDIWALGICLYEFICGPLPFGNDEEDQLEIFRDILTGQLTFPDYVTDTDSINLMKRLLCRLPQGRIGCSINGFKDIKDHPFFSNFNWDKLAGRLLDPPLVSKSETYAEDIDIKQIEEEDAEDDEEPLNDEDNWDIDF
# UniProt P41146, whole entry: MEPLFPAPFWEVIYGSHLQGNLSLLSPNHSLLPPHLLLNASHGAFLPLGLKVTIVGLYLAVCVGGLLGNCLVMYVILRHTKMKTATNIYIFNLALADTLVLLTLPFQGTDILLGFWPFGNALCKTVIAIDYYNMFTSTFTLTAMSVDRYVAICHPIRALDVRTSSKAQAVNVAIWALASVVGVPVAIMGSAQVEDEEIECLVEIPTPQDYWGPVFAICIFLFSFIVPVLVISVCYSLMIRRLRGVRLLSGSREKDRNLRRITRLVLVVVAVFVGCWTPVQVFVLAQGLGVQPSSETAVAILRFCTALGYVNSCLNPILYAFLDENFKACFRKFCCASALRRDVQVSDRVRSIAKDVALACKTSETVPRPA
# UniProt P37136, 32-614 limits assumed: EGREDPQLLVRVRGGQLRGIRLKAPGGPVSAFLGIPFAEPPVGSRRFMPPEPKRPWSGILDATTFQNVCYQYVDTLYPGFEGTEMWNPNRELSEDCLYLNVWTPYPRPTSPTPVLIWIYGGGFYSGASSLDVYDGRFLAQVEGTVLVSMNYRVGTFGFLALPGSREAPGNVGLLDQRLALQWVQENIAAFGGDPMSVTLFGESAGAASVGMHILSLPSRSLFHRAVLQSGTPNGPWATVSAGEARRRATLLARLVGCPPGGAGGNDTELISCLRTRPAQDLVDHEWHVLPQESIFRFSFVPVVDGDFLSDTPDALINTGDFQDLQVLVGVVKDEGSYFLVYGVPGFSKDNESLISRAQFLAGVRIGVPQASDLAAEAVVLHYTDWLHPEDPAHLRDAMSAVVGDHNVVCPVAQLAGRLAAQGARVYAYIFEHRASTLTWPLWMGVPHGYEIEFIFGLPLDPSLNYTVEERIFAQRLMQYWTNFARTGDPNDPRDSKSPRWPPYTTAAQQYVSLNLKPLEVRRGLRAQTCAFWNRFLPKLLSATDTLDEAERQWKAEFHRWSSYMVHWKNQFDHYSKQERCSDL
# UniProt P63096, 2-354 partner limits assumed: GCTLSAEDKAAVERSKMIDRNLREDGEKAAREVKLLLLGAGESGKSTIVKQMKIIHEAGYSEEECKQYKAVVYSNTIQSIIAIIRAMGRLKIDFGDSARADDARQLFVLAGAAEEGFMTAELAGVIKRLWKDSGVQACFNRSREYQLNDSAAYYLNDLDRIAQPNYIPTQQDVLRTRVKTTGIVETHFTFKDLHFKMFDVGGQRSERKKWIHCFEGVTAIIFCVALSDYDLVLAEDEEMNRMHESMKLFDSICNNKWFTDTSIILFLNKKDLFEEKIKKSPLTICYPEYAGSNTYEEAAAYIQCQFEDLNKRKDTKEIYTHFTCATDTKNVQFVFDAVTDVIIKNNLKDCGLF
# UniProt P59768, 2-68 partner limits assumed: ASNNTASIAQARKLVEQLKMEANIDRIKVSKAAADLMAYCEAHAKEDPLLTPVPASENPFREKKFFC
# Protocols differ between the studies behind these lines. ± gives the spread as reported.
# Cacna1b with α2δ, β3 subunits: Voltage-dependent N-type calcium channel subunit alpha-1B, with α2δ, β3 subunits (Cacna1b, Rattus norvegicus, UniProt Q02294)
# bglR: Beta-glucuronidase (bglR, Clostridium perfringens, UniProt Q8XP19)
Compound,target or system,test,test system,setting,scale,endpoint,value
C[C@@H](O)[C@@H]1NC(=O)[C@@H]2CSSC[C@H](N)C(=O)N[C@@H](CCCCN)C(=O)NCC(=O)N[C@@H](CCCCN)C(=O)NCC(=O)N[C@@H](CO)C(=O)N[C@@H](CO)C(=O)N[C@H]3CSSC[C@H](NC(=O)[C@H](CO)NC(=O)CNC1=O)C(=O)N[C@@H](CCCNC(=N)N)C(=O)N[C@@H](CC(N)=O)C(=O)NCC(=O)N[C@@H](CCCCN)C(=O)N[C@H](C(N)=O)CSSC[C@H](NC(=O)[C@H](CC(=O)O)NC(=O)[C@H](Cc1ccc(O)cc1)NC(=O)[C@H](CO)NC(=O)[C@H]([C@@H](C)O)NC(=O)[C@H](CCCNC(=N)N)NC(=O)[C@H](CCCNC(=N)N)NC3=O)C(=O)N2,"Cacna1b with α2δ, β3 subunits","Ba2+ current, inhibitor, whole-cell patch clamp",HEK293 expressing α2δ and β3,"22 °C, together with: Ba2+ 20 mM",,IC50,129 nM
CC[C@H](C)[C@H](NC(=O)[C@H](C)NC(=O)[C@H](CCC(=O)O)NC(=O)[C@H](CCC(=O)O)NC(=O)[C@H](CC(C)C)NC(=O)[C@H](CCCCN)NC(=O)[C@H](CCCCN)NC(=O)[C@H](CCSC)NC(=O)[C@H](CCC(=O)O)NC(=O)[C@H](Cc1ccc(O)cc1)NC(=O)[C@H](CCC(=O)O)NC(=O)[C@H](CC(C)C)NC(=O)[C@H](CC(=O)O)NC(=O)[C@H](CC(C)C)NC(=O)[C@H](Cc1ccccc1)NC(=O)[C@@H](NC(=O)[C@@H](NC(=O)[C@H](CC(N)=O)NC(=O)[C@@H](NC(=O)[C@H](CCC(N)=O)NC(=O)[C@H](CC(=O)O)NC(=O)[C@H](CC(C)C)NC(=O)[C@@H](N)CO)[C@@H](C)CC)C(C)C)[C@@H](C)O)C(=O)N[C@@H](CCCCN)C(=O)N[C@@H](CCCCN)C(=O)N[C@@H](CC(C)C)C(=O)N[C@@H](CCC(=O)O)C(=O)N[C@@H](CCC(=O)O)C(=O)N[C@@H](CO)C(=O)N[C@@H](Cc1ccc(O)cc1)C(=O)N[C@H](C(=O)N[C@@H](CC(=O)O)C(=O)N[C@@H](CC(C)C)C(=O)N[C@@H](CCCCN)C(=O)N[C@@H](CCC(=O)O)C(=O)N[C@@H](CC(C)C)C(=O)O)[C@@H](C)CC,"Spike glycoprotein, Beta variant (Severe acute respiratory syndrome coronavirus 2, UniProt P0DTC2)","cell-cell fusion, inhibitor, luciferase fusion","293T donor, Huh-7 target","16 h, 37 °C, dual mutations",,IC50,321 nM
CC[C@H](C)[C@@H]1NC(=O)[C@H](CCCNC(=N)N)NC(=O)[C@@H](N)CSSC[C@@H]2NC(=O)[C@@H]3CSSC[C@@H](C(=O)N[C@H](C(=O)O)C(C)C)NC(=O)[C@H](CCCCN)NC(=O)[C@H](CC(N)=O)NC(=O)[C@H](Cc4ccccc4)NC(=O)[C@H](CCCNC(=N)N)NC(=O)[C@H](CC(N)=O)NC(=O)[C@H](CSSC[C@H](NC(=O)[C@H](CCCCN)NC(=O)[C@H](CCC(N)=O)NC(=O)[C@H](CC(N)=O)NC(=O)[C@@H]4C[C@@H](O)CN4C1=O)C(=O)N[C@@H](Cc1ccccc1)C(=O)N[C@@H](CCC(N)=O)C(=O)N[C@@H](Cc1c[nH]cn1)C(=O)N[C@@H](CC(C)C)C(=O)N[C@@H](CC(=O)O)C(=O)N[C@@H](CC(=O)O)C(=O)N3)NC(=O)[C@H](CCCCN)NC(=O)[C@H](CCCNC(=N)N)NC(=O)[C@H](CO)NC2=O,"Sh (Drosophila melanogaster, UniProt P08510, del6-46)","potassium current, outside-out patch clamp",,"500 nM, -40 mV, 150 ms, together with: TEA 1 mM",,blocked channels,~60%
O=c1c(OCCCO)c(SSc2cnn(-c3ccccc3)c(=O)c2OCCCO)cnn1-c1ccccc1,"Sortase A (Bacillus anthracis str. H9401, UniProt P0DPQ5)",inhibitor,Bacillus anthracis,,,IC50,1860 ± 590 nM
CC(=O)Oc1ccc(CON2C(=O)CCC2=O)cc1,"Thioredoxin reductase 1, cytoplasmic (TXNRD1, Homo sapiens, UniProt Q16881)","enzyme activity, inhibitor",,,,IC50,710 ± 30 nM
COc1ccc(CN2CCN(C(c3ccc(F)cc3)c3ccc(F)cc3)CC2)c(OC)c1OC,"Replicase polyprotein 1ab, nsp14 (rep, Severe acute respiratory syndrome-related coronavirus, UniProt P0C6X7)","enzyme activity, inhibitor",,,,IC50,13500 ± 2000 nM
CC(=O)N[C@@H](CCCCN)C(=O)N[C@@H](Cc1c[nH]c2ccccc12)C(=O)N[C@@H](CCCCN)C(=O)N[C@@H](CCCNC(=N)N)C(=O)N[C@@H](CC(=O)O)C(=O)N[C@@H](Cc1c[nH]cn1)C(=O)N[C@@H](CC(=O)O)C(=O)N[C@@H](CCCNC(=N)N)C(N)=O,"Sodium channel protein type 2 subunit alpha (Scn2a, Rattus norvegicus, UniProt P04775)","ion current, inhibitor, Hill equation fit",,rat channel,,IC50,144000 ± 1100 nM
c1cc2c(nc1N1CCOCC1)sc1c(N3CCNCC3)nnnc12,bglR,"enzyme activity, inhibitor",,,,IC50,20 ± 10 nM
CS(=O)(=O)Cc1onc(-c2cccc(Cl)c2)c1-c1ccnc(N[C@@H]2CCN(C(=O)c3nccs3)C2)n1,"cGMP-dependent protein kinase (PKG, Plasmodium falciparum, UniProt Q8I719)","kinase activity, inhibitor, IMAP",,"together with: ATP 10 µM, FAM-PKAtide",,IC50,14 ± 1 nM
CC(C)[C@H]1CC[C@@H](N2CCC3(CC2)C(=O)NCN3c2ccccc2)CC1,"Nociceptin receptor (OPRL1, Homo sapiens, UniProt P41146)","G protein interaction, BRET",HEK293 membranes,,baseline: N/OFQ,fold lower potency,28 fold
CC[C@H](C)[C@H](NC(=O)[C@H](C)NC(=O)[C@H](CCC(=O)O)NC(=O)[C@H](CCC(=O)O)NC(=O)[C@H](CC(C)C)NC(=O)[C@H](CCCCN)NC(=O)[C@H](CCCCN)NC(=O)[C@H](CCSC)NC(=O)[C@H](CCC(=O)O)NC(=O)[C@H](Cc1ccc(O)cc1)NC(=O)[C@H](CCC(=O)O)NC(=O)[C@H](CC(C)C)NC(=O)[C@H](CC(=O)O)NC(=O)[C@H](CC(C)C)NC(=O)[C@H](Cc1ccccc1)NC(=O)[C@@H](NC(=O)[C@@H](NC(=O)[C@H](CC(N)=O)NC(=O)[C@@H](NC(=O)[C@H](CCC(N)=O)NC(=O)[C@H](CC(=O)O)NC(=O)[C@H](CC(C)C)NC(=O)[C@@H](N)CO)[C@@H](C)CC)C(C)C)[C@@H](C)O)C(=O)N[C@@H](CCCCN)C(=O)N[C@@H](CCCCN)C(=O)N[C@@H](CC(C)C)C(=O)N[C@@H](CCC(=O)O)C(=O)N[C@@H](CCC(=O)O)C(=O)N[C@H](C(=O)N[C@@H](Cc1ccc(O)cc1)C(=O)N[C@H](C(=O)N[C@@H](CC(=O)O)C(=O)N[C@@H](CC(C)C)C(=O)N[C@@H](CCCCN)C(=O)N[C@@H](CCC(=O)O)C(=O)N[C@@H](CC(C)C)C(=O)O)[C@@H](C)CC)[C@@H](C)O,"Spike glycoprotein (MERS-CoV, UniProt K9N5Q8)","cell-cell fusion, inhibitor, luciferase fusion","293T donor, Huh-7 target","16 h, 37 °C",,IC50,1800 nM
c1cnc2sc3c(N4CCNCC4)ncnc3c2c1,bglR,"enzyme activity, inhibitor",,,,IC50,44 ± 3 nM
C[C@@H]1NC(=O)CNC(=O)[C@H](CCCCN)NC(=O)[C@H](CCCNC(=N)N)NC(=O)[C@H](CCCCN)NC(=O)[C@@H](N)CSSC[C@@H]2NC(=O)[C@@H]3CSSC[C@@H](C(N)=O)NC(=O)[C@H](CCCCN)NC(=O)CNC(=O)[C@H](CC(N)=O)NC(=O)[C@H](CCCNC(=N)N)NC(=O)[C@H](CSSC[C@H](NC(=O)[C@H](CO)NC1=O)C(=O)N[C@@H](CCCNC(=N)N)C(=O)N[C@@H](CCCNC(=N)N)C(=O)N[C@@H]([C@@H](C)O)C(=O)N[C@@H](CO)C(=O)N[C@@H](Cc1ccc(O)cc1)C(=O)N[C@@H](CC(=O)O)C(=O)N3)NC(=O)[C@H](CO)NC(=O)CNC(=O)[C@H]([C@@H](C)O)NC2=O,"Cacna1b with α2δ, β3 subunits","Ba2+ current, inhibitor, whole-cell patch clamp",HEK293 expressing α2δ and β3,"22 °C, together with: Ba2+ 20 mM",,IC50,68 nM
CCOP(=O)(OCC)ON1C(=O)c2cccc3cccc(c23)C1=O,"Acetylcholinesterase (Ache, Rattus norvegicus, UniProt P37136)","enzyme activity, inhibitor","rat, postnatal day 70, rat brain homogenate","15 min, 37 °C",,IC50,64 nM
CC[C@H](C)[C@H](NC(=O)[C@H](C)NC(=O)[C@H](CCC(=O)O)NC(=O)[C@H](CCC(=O)O)NC(=O)[C@H](CC(C)C)NC(=O)[C@H](CCCCN)NC(=O)[C@H](CCCCN)NC(=O)[C@H](CCSC)NC(=O)[C@H](CCC(=O)O)NC(=O)[C@H](Cc1ccc(O)cc1)NC(=O)[C@H](CCC(=O)O)NC(=O)[C@H](CC(C)C)NC(=O)[C@H](CC(=O)O)NC(=O)[C@H](CC(C)C)NC(=O)[C@H](Cc1ccccc1)NC(=O)[C@H](Cc1ccccc1)NC(=O)[C@@H](NC(=O)[C@H](CC(N)=O)NC(=O)[C@@H](NC(=O)[C@H](CCC(N)=O)NC(=O)[C@H](CC(=O)O)NC(=O)[C@H](CC(C)C)NC(=O)[C@@H](N)CO)[C@@H](C)CC)C(C)C)C(=O)N[C@@H](CCCCN)C(=O)N[C@@H](CCCCN)C(=O)N[C@@H](CC(C)C)C(=O)N[C@@H](CCC(=O)O)C(=O)N[C@@H](CCC(=O)O)C(=O)N[C@@H](CO)C(=O)N[C@@H](Cc1ccc(O)cc1)C(=O)N[C@H](C(=O)N[C@@H](CC(=O)O)C(=O)N[C@@H](CC(C)C)C(=O)N[C@@H](CCCCN)C(=O)N[C@@H](CCC(=O)O)C(=O)N[C@@H](CC(C)C)C(=O)O)[C@@H](C)CC,"Spike glycoprotein (Severe acute respiratory syndrome coronavirus, UniProt P59594)","cell-cell fusion, inhibitor, luciferase fusion","293T donor, Huh-7 target","16 h, 37 °C",,IC50,31.9 nM
CC(=O)Nc1nc2ccccc2n1Cc1ccc(Cl)cc1,"Enoyl-[acyl-carrier-protein] reductase [NADH] (Francisella tularensis subsp. tularensis, UniProt Q5NGQ3)",,,,,IC50,> 100000 nM
O=C(NC1CCN(c2ncnc3[nH]cnc23)CC1)c1cccc(S(=O)(=O)Nc2ccc(Cl)cc2)c1,SARS-CoV-2,,Wuhan-Hu-1,0.2743 µM,baseline: untreated infected cells,relative infection,68.8%
CC[C@H](C)[C@H](NC(=O)[C@H](C)NC(=O)[C@H](CCC(=O)O)NC(=O)[C@H](CCC(=O)O)NC(=O)[C@H](CC(C)C)NC(=O)[C@H](CCCCN)NC(=O)[C@H](CCCCN)NC(=O)[C@H](CCSC)NC(=O)[C@H](CCC(=O)O)NC(=O)[C@H](Cc1ccc(O)cc1)NC(=O)[C@H](CCC(=O)O)NC(=O)[C@H](CC(C)C)NC(=O)[C@H](CC(=O)O)NC(=O)[C@H](CC(C)C)NC(=O)[C@H](Cc1ccccc1)NC(=O)[C@H](Cc1ccccc1)NC(=O)[C@@H](NC(=O)[C@H](CC(N)=O)NC(=O)[C@@H](NC(=O)[C@H](CCC(N)=O)NC(=O)[C@H](CC(=O)O)NC(=O)[C@H](CC(C)C)NC(=O)[C@@H](N)CO)[C@@H](C)CC)C(C)C)C(=O)N[C@@H](CCCCN)C(=O)N[C@@H](CCCCN)C(=O)N[C@@H](CC(C)C)C(=O)N[C@@H](CCC(=O)O)C(=O)N[C@@H](CCC(=O)O)C(=O)N[C@H](C(=O)N[C@@H](Cc1ccc(O)cc1)C(=O)N[C@H](C(=O)N[C@@H](CC(=O)O)C(=O)N[C@@H](CC(C)C)C(=O)N[C@@H](CCCCN)C(=O)N[C@@H](CCC(=O)O)C(=O)N[C@@H](CC(C)C)C(=O)O)[C@@H](C)CC)[C@@H](C)O,"Spike glycoprotein (MERS-CoV, UniProt K9N5Q8)","cell-cell fusion, inhibitor, luciferase fusion","293T donor, Huh-7 target","16 h, 37 °C, dual mutations",,IC50,3540 nM
O=C(O)C(O)=CC(=O)c1ccc2cc(O)c(O)cc2c1,"Nucleoprotein, exonuclease domain (N, Machupo virus, UniProt P26578)",inhibitor,,,,IC50,5420 ± 460 nM

# Excerpt of the above:
Compound,target or system,test,test system,setting,scale,endpoint,value
CC[C@H](C)[C@@H]1NC(=O)[C@H](CCCNC(=N)N)NC(=O)[C@@H](N)CSSC[C@@H]2NC(=O)[C@@H]3CSSC[C@@H](C(=O)N[C@H](C(=O)O)C(C)C)NC(=O)[C@H](CCCCN)NC(=O)[C@H](CC(N)=O)NC(=O)[C@H](Cc4ccccc4)NC(=O)[C@H](CCCNC(=N)N)NC(=O)[C@H](CC(N)=O)NC(=O)[C@H](CSSC[C@H](NC(=O)[C@H](CCCCN)NC(=O)[C@H](CCC(N)=O)NC(=O)[C@H](CC(N)=O)NC(=O)[C@@H]4C[C@@H](O)CN4C1=O)C(=O)N[C@@H](Cc1ccccc1)C(=O)N[C@@H](CCC(N)=O)C(=O)N[C@@H](Cc1c[nH]cn1)C(=O)N[C@@H](CC(C)C)C(=O)N[C@@H](CC(=O)O)C(=O)N[C@@H](CC(=O)O)C(=O)N3)NC(=O)[C@H](CCCCN)NC(=O)[C@H](CCCNC(=N)N)NC(=O)[C@H](CO)NC2=O,"Sh (Drosophila melanogaster, UniProt P08510, del6-46)","potassium current, outside-out patch clamp",,"500 nM, -40 mV, 150 ms, together with: TEA 1 mM",,blocked channels,~60%
O=c1c(OCCCO)c(SSc2cnn(-c3ccccc3)c(=O)c2OCCCO)cnn1-c1ccccc1,"Sortase A (Bacillus anthracis str. H9401, UniProt P0DPQ5)",inhibitor,Bacillus anthracis,,,IC50,1860 ± 590 nM
